Measurements of several laboratories.
Numbered parts are unrelated; each lists some results of a single study. Several values in a cell are separate wells, animals, samples, runs or records.
Chain of UniProt Q9Y4K4 (whole entry, looked up): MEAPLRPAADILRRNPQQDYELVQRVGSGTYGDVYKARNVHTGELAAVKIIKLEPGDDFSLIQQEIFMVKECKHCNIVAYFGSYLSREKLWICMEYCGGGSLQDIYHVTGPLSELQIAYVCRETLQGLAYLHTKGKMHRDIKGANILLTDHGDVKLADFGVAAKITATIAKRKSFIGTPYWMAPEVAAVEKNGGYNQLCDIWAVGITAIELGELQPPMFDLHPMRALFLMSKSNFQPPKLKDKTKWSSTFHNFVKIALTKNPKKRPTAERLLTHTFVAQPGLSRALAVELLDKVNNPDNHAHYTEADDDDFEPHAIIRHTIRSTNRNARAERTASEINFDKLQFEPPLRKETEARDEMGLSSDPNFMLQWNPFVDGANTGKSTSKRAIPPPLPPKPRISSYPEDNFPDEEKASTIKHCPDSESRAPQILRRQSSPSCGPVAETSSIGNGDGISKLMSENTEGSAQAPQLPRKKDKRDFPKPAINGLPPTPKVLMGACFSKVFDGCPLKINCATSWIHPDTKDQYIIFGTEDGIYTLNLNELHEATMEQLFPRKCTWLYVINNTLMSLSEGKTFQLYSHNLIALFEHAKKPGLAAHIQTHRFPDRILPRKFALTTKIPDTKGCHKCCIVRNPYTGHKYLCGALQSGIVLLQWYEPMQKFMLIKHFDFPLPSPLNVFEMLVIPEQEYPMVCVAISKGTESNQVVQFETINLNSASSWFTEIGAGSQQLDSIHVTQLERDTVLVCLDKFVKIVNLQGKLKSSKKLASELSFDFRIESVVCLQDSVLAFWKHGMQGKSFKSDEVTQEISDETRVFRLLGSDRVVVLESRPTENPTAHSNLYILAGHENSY
Chain of UniProt P07947 (whole entry, looked up): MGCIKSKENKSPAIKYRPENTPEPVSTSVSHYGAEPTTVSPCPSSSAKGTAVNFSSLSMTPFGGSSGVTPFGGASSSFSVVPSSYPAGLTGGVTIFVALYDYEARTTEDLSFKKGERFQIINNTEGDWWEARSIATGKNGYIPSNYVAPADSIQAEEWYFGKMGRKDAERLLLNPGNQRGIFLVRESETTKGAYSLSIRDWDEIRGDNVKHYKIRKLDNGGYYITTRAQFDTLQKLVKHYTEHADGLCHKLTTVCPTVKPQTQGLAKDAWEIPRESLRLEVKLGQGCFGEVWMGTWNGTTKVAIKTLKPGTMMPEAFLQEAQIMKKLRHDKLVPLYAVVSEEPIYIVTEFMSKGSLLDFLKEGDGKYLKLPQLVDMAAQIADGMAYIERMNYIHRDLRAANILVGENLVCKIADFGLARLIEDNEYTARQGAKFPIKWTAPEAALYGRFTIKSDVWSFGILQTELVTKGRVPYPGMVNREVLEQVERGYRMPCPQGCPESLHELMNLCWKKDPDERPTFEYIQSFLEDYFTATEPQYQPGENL
Chain of UniProt P54762 (whole entry, looked up): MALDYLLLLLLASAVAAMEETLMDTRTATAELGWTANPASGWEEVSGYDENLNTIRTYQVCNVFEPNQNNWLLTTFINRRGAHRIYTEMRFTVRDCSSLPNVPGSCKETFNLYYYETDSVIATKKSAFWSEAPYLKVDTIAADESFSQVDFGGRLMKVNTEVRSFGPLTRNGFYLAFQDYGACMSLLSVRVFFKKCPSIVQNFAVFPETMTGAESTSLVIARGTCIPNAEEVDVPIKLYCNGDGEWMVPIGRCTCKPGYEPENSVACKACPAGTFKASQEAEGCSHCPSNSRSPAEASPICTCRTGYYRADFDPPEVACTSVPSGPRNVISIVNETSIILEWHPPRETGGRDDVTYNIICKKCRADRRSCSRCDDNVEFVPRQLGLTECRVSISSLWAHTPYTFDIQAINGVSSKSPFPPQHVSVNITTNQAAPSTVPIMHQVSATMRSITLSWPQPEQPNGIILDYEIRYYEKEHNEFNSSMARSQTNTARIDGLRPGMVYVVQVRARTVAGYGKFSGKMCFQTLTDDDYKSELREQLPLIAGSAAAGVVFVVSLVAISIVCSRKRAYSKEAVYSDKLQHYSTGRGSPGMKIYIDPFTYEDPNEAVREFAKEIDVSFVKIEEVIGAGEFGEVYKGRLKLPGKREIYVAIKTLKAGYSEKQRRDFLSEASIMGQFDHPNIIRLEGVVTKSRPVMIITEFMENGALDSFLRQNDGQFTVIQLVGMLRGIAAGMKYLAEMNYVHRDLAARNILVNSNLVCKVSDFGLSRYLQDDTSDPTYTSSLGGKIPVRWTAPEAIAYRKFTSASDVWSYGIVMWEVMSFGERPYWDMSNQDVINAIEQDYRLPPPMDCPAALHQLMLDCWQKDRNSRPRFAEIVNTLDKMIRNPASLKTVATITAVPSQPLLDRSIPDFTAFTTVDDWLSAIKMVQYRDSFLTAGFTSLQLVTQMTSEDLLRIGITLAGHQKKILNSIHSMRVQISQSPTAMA
Chain of UniProt Q9HC98 (whole entry, looked up): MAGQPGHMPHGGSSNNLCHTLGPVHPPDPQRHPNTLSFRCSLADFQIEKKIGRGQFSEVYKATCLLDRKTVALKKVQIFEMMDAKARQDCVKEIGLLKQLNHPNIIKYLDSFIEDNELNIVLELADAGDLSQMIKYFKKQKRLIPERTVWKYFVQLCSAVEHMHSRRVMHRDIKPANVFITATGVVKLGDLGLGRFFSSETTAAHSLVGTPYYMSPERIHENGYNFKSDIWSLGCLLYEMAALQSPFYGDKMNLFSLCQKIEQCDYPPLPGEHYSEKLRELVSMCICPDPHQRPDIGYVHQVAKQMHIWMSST
Chain of UniProt P19525 (whole entry, looked up): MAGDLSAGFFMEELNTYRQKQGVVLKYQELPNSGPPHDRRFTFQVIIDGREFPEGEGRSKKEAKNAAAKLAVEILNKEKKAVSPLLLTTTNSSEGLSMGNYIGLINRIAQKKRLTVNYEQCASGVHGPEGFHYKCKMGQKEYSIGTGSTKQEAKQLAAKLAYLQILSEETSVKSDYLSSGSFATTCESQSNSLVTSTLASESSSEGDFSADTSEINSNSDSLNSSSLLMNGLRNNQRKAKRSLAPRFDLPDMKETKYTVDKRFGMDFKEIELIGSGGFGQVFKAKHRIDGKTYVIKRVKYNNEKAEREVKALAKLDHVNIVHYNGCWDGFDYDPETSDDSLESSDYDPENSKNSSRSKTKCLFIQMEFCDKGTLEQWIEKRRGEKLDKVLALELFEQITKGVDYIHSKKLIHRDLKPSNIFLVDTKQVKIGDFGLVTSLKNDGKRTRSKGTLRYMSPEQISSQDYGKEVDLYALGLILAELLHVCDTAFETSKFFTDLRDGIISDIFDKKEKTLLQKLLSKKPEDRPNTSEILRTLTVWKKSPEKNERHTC

Study 1
Target: Protein kinase C alpha type (PRKCA, Homo sapiens, UniProt P17252)
Observed: enzyme activity
Mode: inhibitor
Tested at: 0.5 µM
Baseline: control
`Oc1ccc(-c2nc(-c3ccncc3)c(-c3ccc(F)cc3)[nH]2)cc1` has a remaining activity of 102%.
`COc1ccc(OC)c2c(=S)c3ccccc3[nH]c12` gave a remaining activity of 95.7%.
`CN(C)c1ccc(C=C2C(=O)Nc3ccccc32)cc1` gave a remaining activity of 94.5%.
The remaining activity of `COc1cc2ncnc(Nc3ccc(Oc4ccccc4)cc3)c2cc1OC` is reported as 101%.
The remaining activity of `CC(C)[C@H](CO)Nc1nc(Nc2cc(N)cc(Cl)c2)c2ncn(C(C)C)c2n1` is reported as 66.1%.
`O=C(CCCc1ccc(-c2ccccc2F)cc1)Nc1ccc(O)cc1` gave a remaining activity of 100%.
With `COc1ccc(C(=O)Nc2sc3c(c2C(N)=O)CCCC3)cc1OC` the remaining activity was 96.6%.
With `C#Cc1cccc(Nc2ncnc3cc(OCCOC)c(OCCOC)cc23)c1` the remaining activity was 88.6%.
For `O=C1NC(=O)C(c2cn(CCCO)c3ncccc23)=C1c1cnccn1`, the remaining activity was 91.1%.
`Cn1c2ccccc2c2c3c(c4c5ccccc5n(CCC#N)c4c21)CNC3=O` gave a remaining activity of 7.58%.
With `COc1cc2nccc(Oc3ccc(NC(=S)NC(=O)c4ccccc4C)cc3)c2cc1OC` the remaining activity was 91.3%.
With `O=S(=O)(c1cccc2cnccc12)N1CCCNCC1` the remaining activity was 94.8%.
With `Cc1cccc(-c2[nH]c(C(C)(C)C)nc2-c2ccc3c(c2)OCO3)n1` the remaining activity was 99.6%.
`Cn1sc(=O)n(Cc2ccccc2)c1=O` has a remaining activity of 71.8%.
With `Nc1[nH]nc2nc3ccccc3nc12` the remaining activity was 71%.

Study 2
SMILES: NS(=O)(=O)c1cc(NC(=O)Cc2ccccc2)ccc1Oc1cccc(Cl)c1
Observed: cell-free assay
Technique: competition with immobilised ligand
Tested at: 1 µM
Dual specificity mitogen-activated protein kinase kinase 2 (MAP2K2, Homo sapiens, UniProt P36507) — remaining binding: 100%.
Mitogen-activated protein kinase kinase kinase kinase 5 (MAP4K5, Homo sapiens, UniProt Q9Y4K4) — remaining binding: 72%.
It gave 89% for remaining binding (Ribosomal protein S6 kinase alpha-2, C-terminal kinase domain (RPS6KA2, Homo sapiens, UniProt Q15349)).
It gave 76% for remaining binding (Epidermal growth factor receptor (EGFR, Homo sapiens, UniProt P00533, del752-759)).
For Tyrosine-protein kinase Yes (YES1, Homo sapiens, UniProt P07947): remaining binding read 86%.
The remaining binding was 93% (Ephrin type-B receptor 1 (EPHB1, Homo sapiens, UniProt P54762)).

Study 3
SMILES: COc1ccc2[nH]c3c4[nH]c5ccc(OC)cc5c4c4c(c3c2c1)C(=O)NC4=O
Tested at: 1 µM
The remaining binding was 76% (Serine/threonine-protein kinase MRCK alpha (CDC42BPA, Homo sapiens, UniProt Q5VT25); competitive binding; MRCKA).
The remaining binding was 53% (Receptor-type tyrosine-protein kinase FLT3 (FLT3, Homo sapiens, UniProt P36888); competitive binding scan; autoinhibited form).
It gave 85% for remaining binding (Ephrin type-B receptor 3 (EPHB3, Homo sapiens, UniProt P54753); competitive binding panel; baseline: vehicle).
Dual specificity tyrosine-phosphorylation-regulated kinase 1A (DYRK1A, Homo sapiens, UniProt Q13627); competitive binding panel; baseline: vehicle — remaining binding: 48%.
For Phosphatidylinositol 5-phosphate 4-kinase type-2 beta (PIP4K2B, Homo sapiens, UniProt P78356); competitive binding panel, refers to: PIP5K2B; baseline: vehicle: remaining binding read 100%.
It gave 100% for remaining binding (TGF-beta receptor type-1 (TGFBR1, Homo sapiens, UniProt P36897); competitive binding panel; baseline: vehicle).
It gave 87% for remaining binding (Serine/threonine-protein kinase Nek6 (NEK6, Homo sapiens, UniProt Q9HC98); competitive binding panel; baseline: vehicle).
It gave 100% for remaining binding (Interferon-induced, double-stranded RNA-activated protein kinase (EIF2AK2, Homo sapiens, UniProt P19525); competitive binding; PRKR).

Study 4
Cell line: mouse MPNST tumor cells
Technique: high-content immunofluorescence imaging
Refers to: nuclear SOX9
Tested at: 10 µM
Time: 12 h
Notes: mean of 2 replicates
Baseline: DMSO control
Reading: higher = more nuclear SOX9
Under “nuclear SOX9 intensity”, `Cc1c(NC(=O)OC[C@@H]2COCCN2)cn2ncnc(Nc3ccc4c(cnn4Cc4cccc(F)c4)c3)c12` is recorded as 241 % of DMSO.
For `C[C@@H]1C[C@H]2[C@@H]3C[C@H](F)C4=CC(=O)C=C[C@]4(C)[C@@]3(F)[C@@H](O)C[C@]2(C)[C@@]1(O)C(=O)CO`, “nuclear SOX9 intensity” read 75.9 % of DMSO.
`NC(=O)c1nc(Nc2ccccc2)sc1NC(=O)C1CCCCC1` — result for “nuclear SOX9 intensity”: 145 % of DMSO.
`Cc1ccc(-c2cc(C(=O)Nc3cccnc3)c3cc(Br)ccc3n2)cc1`: “nuclear SOX9 intensity” 95 % of DMSO.
For `NC(=O)OCC(COC(N)=O)c1ccccc1`, “nuclear SOX9 intensity” read 106 % of DMSO and 84.9 % of DMSO and 102 % of DMSO.
For `CC(C)(S)C(N)C(=O)O` (racemic), “nuclear SOX9 intensity” read 113 % of DMSO.

For quick reference, copied from above (study 3):
Dual specificity tyrosine-phosphorylation-regulated kinase 1A (DYRK1A, Homo sapiens, UniProt Q13627); competitive binding panel; baseline: vehicle — remaining binding: 48%.
For Phosphatidylinositol 5-phosphate 4-kinase type-2 beta (PIP4K2B, Homo sapiens, UniProt P78356); competitive binding panel, refers to: PIP5K2B; baseline: vehicle: remaining binding read 100%.
It gave 100% for remaining binding (TGF-beta receptor type-1 (TGFBR1, Homo sapiens, UniProt P36897); competitive binding panel; baseline: vehicle).
It gave 87% for remaining binding (Serine/threonine-protein kinase Nek6 (NEK6, Homo sapiens, UniProt Q9HC98); competitive binding panel; baseline: vehicle).
It gave 100% for remaining binding (Interferon-induced, double-stranded RNA-activated protein kinase (EIF2AK2, Homo sapiens, UniProt P19525); competitive binding; PRKR).
